Results from different studies.
Lines come from different studies, so protocols differ. Values joined by “and” are separate records of one study, mostly repeats; a detail may differ. Numbers after ± are the reported error. Converted amounts (≈) assume the structure as drawn.

`C=C(NC(=O)c1csc(-c2nc3c(cc2O)-c2nc(cs2)C(=O)NC(C(C)O)C(=O)NC(=C(C)OC)c2nc(cs2)C(=O)NC2c4nc(cs4)C(=O)NC(COC(=O)c4c5c6c(cccc6n4O)COC(=O)C(OC4CC(C)(O)C(N(C)C)C(C)O4)C2OC5)c2nc-3cs2)n1)C(N)=O` (stereo not drawn) has an MIC50 of 7.8 ng/mL (≈ 5.43 nM) (Streptococcus pyogenes; broth microdilution).
Under “log2 fold change”, `COC1CN([C@H]2CC[C@H]([C@@]3(C)Oc4c(Cl)cc(C(=O)NCc5c(SC)cc(C)[nH]c5=O)c(C)c4O3)CC2)C1` is recorded as 0.289 (RNA-seq, refers to: GYG1 mouse homolog; mouse, HT-1376 xenograft, whole blood; dose not given; baseline: vehicle).
The IC50 of `CNS(=O)(=O)Nc1nccc(Cc2c(C)c3ccc(Oc4ncccc4F)cc3oc2=O)c1F` is reported as greater than 1 µM (NCI-H1650; cell viability; 7 days).
`Nc1ncc(-c2cc(-c3cnn(CC(F)(F)F)c3)ncc2F)nc1C(=O)NC1CNCC(F)C1` (stereo not drawn) gave a remaining binding of 37% (CLK3; KINOMEscan; 1 µM; baseline: DMSO control).
The fold regulation of `CCN(CC)CC(=O)Nc1cccc(-n2cc(-c3ccc4ccc(-c5cn(-c6cccc(NC(=O)CN(CC)CC)c6)nn5)cc4c3)nn2)c1` is reported as -1.49 (RCC4; PCR angiogenesis array, refers to: IFNA1; 5 x IC50, 4 h, normoxia; baseline: untreated).
`O=C(NCCOc1ccc(F)cc1)c1ccc(C2CCCCC2)cc1` has a hepatic clearance of 9.7 mL/min/kg (liver microsome stability; human liver microsomes; 1 µM, without NADPH).
With `C[n+]1ccc(/C=N/NC(=O)C(=O)N/N=C/c2cc[n+](C)c3ccccc23)c2ccccc21` the ΔTm was 3.2 ± 1.6 °C (22CTA telomeric G4-DNA antiparallel; FRET melting; 1 µM, K10 buffer, DNA 0.2 µM).
`COC1OC(C)C(OS(=O)(=O)O)C(OC2OC(C)C(OS(=O)(=O)O)C(OC3OC(C)C(OS(=O)(=O)O)C(OC4OC(C)C(OS(=O)(=O)O)C(OC5OC(C)C(OS(=O)(=O)O)C(OC6OC(C)C(OS(=O)(=O)O)C(OC7OC(C)C(OS(=O)(=O)O)C(OC8OC(C)C(OS(=O)(=O)O)C(OC9OC(C)C(OS(=O)(=O)O)C(OC%10OC(C)C(OS(=O)(=O)O)C(OC%11OC(C)C(OS(=O)(=O)O)C(OC%12OC(C)C(OS(=O)(=O)O)C(OS(=O)(=O)O)C%12O)C%11O)C%10O)C9O)C8O)C7O)C6O)C5O)C4O)C3O)C2O)C1O` (stereo not drawn): “activated partial thromboplastin time” 44.3 ± 0.4 s (human plasma; 128 µg/mL).
The di-ubiquitin formed of `O=c1c(Oc2ccccc2)c(C(F)(F)F)oc2c(O)c(O)ccc12` is reported as 19% (ROC1-CUL1 E3 subcomplex; di-ubiquitin synthesis; 300 µM; baseline: input).
With `N#CCNC(=O)c1ccc(C2CCCCC2)cc1` the hepatic clearance was 3.9 mL/min/kg (liver microsome stability; human liver microsomes; 1 µM, without NADPH).
Under “percent of control”, `C=CC(=O)Nc1cccc(Cn2ncc3cnc(Nc4cnn(CCOC)c4)nc32)c1` is recorded as 100% (EGFR human; binding, KINOMEscan; 100 nM; lower = stronger binding).
`C[n+]1cc(/C=N/NC(=O)c2ccc3ccc4ccc(C(=O)N/N=C/c5cc6ccccc6[n+](C)c5)nc4c3n2)cc2ccccc21` gave a ΔTm of 16.3 ± 1.4 °C (22CTA telomeric G4-DNA antiparallel; FRET melting; 1 µM, K10 buffer, DNA 0.2 µM).
`CN1CCCNC(=O)c2cccc(c2)C(=O)NCCCN(C)CCCNc2cccc3c2C(=O)c2cccc(c2C3=O)NCCC1`: “log2 fold change” 4.01 (SAS; RNA-Seq, refers to: KCNB1 mRNA; 1 µM, 6 h; baseline: untreated cells).
`C[n+]1cc(/C=N/NC(=O)c2cc(C(=O)N/N=C/c3cc4ccccc4[n+](C)c3)ncn2)cc2ccccc21` gave a ΔTm of 5.6 ± 0.8 °C (22CTA telomeric G4-DNA antiparallel; FRET melting; 1 µM, K10 buffer, DNA 0.2 µM).
`C=CC(=O)N1[C@@H](c2ccc3c(c2)OCO3)c2[nH]c3ccccc3c2C[C@H]1C(=O)N1CCN(C)CC1` gave a relative co-enrichment of 95% (human cyclin E1 wild type-3xFLAG:CDK2; co-IP with TMT proteomics, refers to: HNRNPA2B1; concentration not given, P22626; baseline: wild type DMSO).
For `COC1OC(C)C(OC2OC(C)C(OS(=O)(=O)O)C(OS(=O)(=O)O)C2O)C(OS(=O)(=O)O)C1O` (stereo not drawn), “activated partial thromboplastin time” read 32.3 ± 0.4 s (human plasma; 128 µg/mL).
`C[n+]1ccc(/C=N/NC(=O)c2cc(C(=O)N/N=C/c3cc[n+](C)c4ccccc34)ncn2)c2ccccc21` has a ΔTm of 3.6 ± 0.6 °C (22CTA telomeric G4-DNA antiparallel; FRET melting; 1 µM, K10 buffer, DNA 0.2 µM, together with: ds26 10 µM).
`Cc1ncsc1-c1ccc(C(C)NC(=O)C2CC(O)CN2C(=O)C(NC(=O)CCCCCCCCCCN2CCCC(Nc3ncc(Cl)c(Nc4ccccc4S(=O)(=O)C(C)C)n3)C2)C(C)(C)C)cc1` (stereo not drawn) — result for “log2 fold change”: -1.24 (22Rv1; RNA-seq, refers to: SEMA6A mRNA; concentration not given; baseline: DMSO).
`c1ccc(-c2n[nH]cc2-c2ccnc3ccccc23)nc1` — result for “log2 fold change”: 0.13 (RTK1 (Candida albicans); kinase binding, MIB/MS competition; Candida albicans lysate; 1 µM; baseline: DMSO).
The ΔTm of `CC[n+]1cccc2cc(/C=N/NC(=O)N/N=C/c3ccc4c(ccc[n+]4CC)c3)ccc21` is reported as 2.4 ± 1.1 °C (22CTA telomeric G4-DNA antiparallel; FRET melting; 1 µM, K10 buffer, DNA 0.2 µM, together with: ds26 10 µM).
`COc1ccccc1-c1ccncc1C(=O)Nc1nnc(OCc2ccc(Cl)cc2)s1` gave a colony count of 48 and 38 and 25 and 39 and 19 and 21 (Brca1 Δ11/Δ11 MEFs sgGFP; 10 µM).
With `O=C(N/N=C/c1cc[n+](CC2CC2)c2ccccc12)c1cncc(C(=O)N/N=C/c2cc[n+](CC3CC3)c3ccccc23)n1` the ΔTm was 15.2 ± 0.2 °C (22CTA telomeric G4-DNA antiparallel; FRET melting; 1 µM, K10 buffer, DNA 0.2 µM, together with: ds26 10 µM).
The colony survival of `CO[C@@H]1[C@@H](OC(N)=O)[C@@H](O)[C@H](Oc2ccc3c(O)c(NC(=O)c4ccc(O)c(CC=C(C)C)c4)c(=O)oc3c2C)OC1(C)C` is reported as 0.417% (HCT-116 parental; 300 µM; baseline: untreated).
With `C[n+]1cc(/C=N/NC(=O)C(=O)N/N=C/c2cc3ccccc3[n+](C)c2)cc2ccccc21` the ΔTm was 2.2 ± 0.6 °C (22CTA telomeric G4-DNA antiparallel; FRET melting; 1 µM, K10 buffer, DNA 0.2 µM, together with: ds26 10 µM).
`COC1OC(C)C(OS(=O)(=O)O)C(OC2OC(C)C(OS(=O)(=O)O)C(OC3OC(C)C(OS(=O)(=O)O)C(OC4OC(C)C(OS(=O)(=O)O)C(OC5OC(C)C(OS(=O)(=O)O)C(OC6OC(C)C(OS(=O)(=O)O)C(OS(=O)(=O)O)C6O)C5O)C4O)C3O)C2O)C1O` (stereo not drawn): “activated partial thromboplastin time” 36.5 ± 0.3 s (human plasma; 128 µg/mL).
The ΔTm of `C[n+]1cccc2cc(/C=N/NC(=O)c3cncc(C(=O)N/N=C/c4ccc5c(ccc[n+]5C)c4)n3)ccc21` is reported as 12.6 ± 0.3 °C (22CTA telomeric G4-DNA antiparallel; FRET melting; 1 µM, K10 buffer, DNA 0.2 µM, together with: ds26 10 µM).
`COC1OC(C)C(OC2OC(C)C(O)C(OC3OC(C)C(OC4OC(C)C(O)C(OC5OC(C)C(OC6OC(C)C(O)C(OC7OC(C)C(OC8OC(C)C(O)C(OC9OC(C)C(OC%10OC(C)C(O)C(OS(=O)(=O)O)C%10OS(=O)(=O)O)C(OS(=O)(=O)O)C9OS(=O)(=O)O)C8OS(=O)(=O)O)C(OS(=O)(=O)O)C7OS(=O)(=O)O)C6OS(=O)(=O)O)C(OS(=O)(=O)O)C5OS(=O)(=O)O)C4OS(=O)(=O)O)C(OS(=O)(=O)O)C3OS(=O)(=O)O)C2OS(=O)(=O)O)C(OS(=O)(=O)O)C1OS(=O)(=O)O` (stereo not drawn) — result for “activated partial thromboplastin time”: 62.6 s and 63.7 s and 61.1 s (human plasma; 32 µg/mL).

Repeated from above:
`C[n+]1cc(/C=N/NC(=O)c2ccc3ccc4ccc(C(=O)N/N=C/c5cc6ccccc6[n+](C)c5)nc4c3n2)cc2ccccc21` gave a ΔTm of 16.3 ± 1.4 °C (22CTA telomeric G4-DNA antiparallel; FRET melting; 1 µM, K10 buffer, DNA 0.2 µM).
`Nc1ncc(-c2cc(-c3cnn(CC(F)(F)F)c3)ncc2F)nc1C(=O)NC1CNCC(F)C1` (stereo not drawn) gave a remaining binding of 37% (CLK3; KINOMEscan; 1 µM; baseline: DMSO control).
`c1ccc(-c2n[nH]cc2-c2ccnc3ccccc23)nc1` — result for “log2 fold change”: 0.13 (RTK1 (Candida albicans); kinase binding, MIB/MS competition; Candida albicans lysate; 1 µM; baseline: DMSO).
`COC1OC(C)C(OC2OC(C)C(O)C(OC3OC(C)C(OC4OC(C)C(O)C(OC5OC(C)C(OC6OC(C)C(O)C(OC7OC(C)C(OC8OC(C)C(O)C(OC9OC(C)C(OC%10OC(C)C(O)C(OS(=O)(=O)O)C%10OS(=O)(=O)O)C(OS(=O)(=O)O)C9OS(=O)(=O)O)C8OS(=O)(=O)O)C(OS(=O)(=O)O)C7OS(=O)(=O)O)C6OS(=O)(=O)O)C(OS(=O)(=O)O)C5OS(=O)(=O)O)C4OS(=O)(=O)O)C(OS(=O)(=O)O)C3OS(=O)(=O)O)C2OS(=O)(=O)O)C(OS(=O)(=O)O)C1OS(=O)(=O)O` (stereo not drawn) — result for “activated partial thromboplastin time”: 62.6 s and 63.7 s and 61.1 s (human plasma; 32 µg/mL).
